Measurements pooled from the literature.
Each line is one published result; not all experiments were run side by side.

Structure (SMILES) | target | assay | test system | setting | scale | measurement | result
CSCC[C@H](NC(=O)[C@H](CCC(N)=O)NC(=O)[C@H](CCCCN)NC(=O)[C@H](CCCNC(=N)N)NC(=O)[C@H](Cc1ccc(O)cc1)NC(=O)[C@H](CCCNC(=N)N)NC(=O)[C@H](CO)NC(=O)[C@H](Cc1ccc(O)cc1)NC(=O)[C@H](CO)NC(=O)[C@H](CC(=O)O)NC(=O)[C@@H](NC(=O)[C@@H](N)Cc1ccccc1)[C@@H](C)O)C(=O)N[C@@H](C)C(=O)N[C@H](C(=O)N[C@@H](CCCCN)C(=O)N[C@@H](CCCCN)C(=O)N[C@@H](Cc1ccc(O)cc1)C(=O)N[C@@H](CC(C)C)C(=O)N[C@@H](C)C(=O)N[C@@H](C)C(=O)N[C@H](C(=O)N[C@@H](CC(C)C)C(=O)NCC(=O)N[C@@H](CCCCN)C(=O)N[C@@H](CCCNC(=N)N)C(=O)N[C@@H](Cc1ccc(O)cc1)C(=O)N[C@@H](CCCCN)C(=O)N[C@@H](CCC(N)=O)C(=O)N[C@@H](CCCNC(=N)N)C(=O)N[C@H](C(=O)N[C@@H](CCCCN)C(=O)N[C@@H](CC(N)=O)C(=O)N[C@@H](CCCCn1cc(C[C@H](NC(=O)CNC(=O)[C@H](CO)NC(=O)[C@H](CCCNC(=N)N)NC(=O)[C@H](CO)NC(=O)[C@H](CC(C)C)NC(=O)[C@H](CC(C)C)NC(=O)CNC(=O)[C@H](C)NC(=O)[C@H](CC(C)C)NC(=O)[C@H](CCCNC(=N)N)NC(=O)[C@H](Cc2c[nH]cn2)NC(=O)[C@@H](NC(=O)[C@@H](N)C(C)C)[C@@H](C)O)C(=O)N[C@H](C(=O)N[C@H](C(=O)N[C@@H](CCCCN)C(=O)N[C@@H](CC(N)=O)C(=O)N[C@@H](CC(N)=O)C(=O)N[C@@H](Cc2ccccc2)C(=O)N[C@H](C(=O)N2CCC[C@H]2C(=O)N[C@H](C(=O)N[C@@H](CC(N)=O)C(=O)N[C@H](C(=O)NCC(=O)N[C@@H](CO)C(=O)N[C@@H](CCCCN)C(=O)N[C@@H](C)C(=O)N[C@@H](Cc2ccccc2)C(N)=O)C(C)C)[C@@H](C)O)C(C)C)C(C)C)C(C)C)nn1)C(N)=O)C(C)C)C(C)C)C(C)C | human VPAC1 receptor | cAMP accumulation, antagonist | transfected COS-7 cells |  |  | pA2 | 5.53
Nc1ncc(-c2cc(-c3cnn(CC(F)(F)F)c3)ncc2F)nc1C(=O)NC1CNCC(F)C1 (centres unmarked) | HIPK1 | KINOMEscan |  | 1 µM | reference: DMSO control | remaining binding | 50%
C=CC(=O)Nc1cccc(Cn2ncc3cnc(Nc4cnn(CCOC)c4)nc32)c1 | SRPK2 human | binding, KINOMEscan |  | 100 nM | lower = stronger binding | percent of control | 65%
Fc1ccc(Nc2nc(NC3CCCCC3)c3cc(Br)ccc3n2)cc1F | β2AR/β1AR TM7 chimera | β-arrestin2 recruitment, antagonist, BRET |  |  | reference: isoprenaline maximal response | maximal inhibition | -4.4%
Cc1[nH]nc2c1N=C(c1ccccc1Cl)c1cnc(N3CCOCC3)cc1N2 | kainate receptor, rat | radioligand binding |  | 10 µM |  | inhibition | 3%
C=CC(=O)N1[C@@H](c2ccc3c(c2)OCO3)c2[nH]c3ccccc3c2C[C@H]1C(=O)N1CCN(C)CC1 | human cyclin E1 N112C-3xFLAG:CDK2 | co-IP with TMT proteomics, measured: SNRPD3 |  | concentration not given, P62318 | reference: wild type DMSO | relative co-enrichment | 132%
Fc1ccc(Nc2nc(NC3CCCCC3)c3ccccc3n2)cc1F | β2AR/β1AR ECL2 chimera | β-arrestin2 recruitment, antagonist, BRET |  |  | reference: isoprenaline maximal response | maximal inhibition | -8.1%
Cc1cn(CC(=O)N(CCNC(=O)CN(CCNC(=O)CN(CCNC(=O)CN(CCNC(=O)CN(CCNC(=O)CN(CCNC(=O)CN(CCNC(=O)CN(CCN)C(=O)Cn2cnc3c(=O)[nH]c(N)nc32)C(=O)Cn2cnc3c(N)ncnc32)C(=O)Cn2cc(C)c(=O)[nH]c2=O)C(=O)Cn2cnc3c(=O)[nH]c(N)nc32)C(=O)Cn2cc(C)c(=O)[nH]c2=O)C(=O)Cn2cnc3c(=O)[nH]c(N)nc32)C(=O)Cn2cnc3c(N)ncnc32)CC(=O)NCCN(CC(=O)NCCOCCOCC(N)=O)C(=O)Cn2cnc3c(N)ncnc32)c(=O)[nH]c1=O | mismatched DNA TC | duplex formation, UV melting |  |  | reference: complementary DNA | ΔTm | -19.2 °C
C=CC(=O)N1Cc2nc(-c3cc(-c4cc(Cl)cnc4Cl)c(F)cc3F)n(-c3ccncn3)c2C1 | CDK11 (human) | kinome panel |  | 1 µM |  | inhibition | -2.2%
C[n+]1cc(NC(=O)c2ccc3ccc4ccc(C(=O)Nc5cc6ccccc6[n+](C)c5)nc4c3n2)cc2ccccc21 | hairpin duplex DNA | UV melting |  | 1 molar equivalents, DNA 3 µM |  | ΔTm | 0.4 °C
c1ccc(-c2n[nH]cc2-c2ccnc3ccccc23)nc1 | POM1 (Candida albicans) | kinase binding, MIB/MS competition | Candida albicans lysate | 10 µM | reference: DMSO | log2 fold change | -1.01
Fc1ccc(Nc2nc(NC3CCCCC3)c3cc(C(F)(F)F)ccc3n2)cc1F | β2AR/β1AR TM7 chimera | β-arrestin2 recruitment, antagonist, BRET |  | with: isoprenaline 1 µM |  | pIC50 | 6.7
C[n+]1ccc(/C=N/NC(=O)c2cncc(C(=O)N/N=C/c3cc[n+](C)c4ccccc34)n2)c2ccccc21 | hairpin duplex DNA | UV melting |  | 2 molar equivalents, DNA 3 µM |  | ΔTm | 0 °C
O=C(C1CCc2ccccc2CC1)N1Cc2cccnc2Nc2ccc(N3CCOCC3)cc21 | IDH1 R132H human | 2-HG production, RapidFire mass spectrometry | MOG-G-UVW overexpressing IDH1 R132H |  |  | IC50 | 66 nM

Some of these lines once more:
Structure (SMILES) | target | assay | test system | setting | scale | measurement | result
O=C(C1CCc2ccccc2CC1)N1Cc2cccnc2Nc2ccc(N3CCOCC3)cc21 | IDH1 R132H human | 2-HG production, RapidFire mass spectrometry | MOG-G-UVW overexpressing IDH1 R132H |  |  | IC50 | 66 nM
